Measured values gathered from unrelated publications.
Parts stem from different laboratories: compare values within a part only.

Block 1 — technique: RNA Bind-n-Seq; molecule type: RNA; sample: in vitro; tested at: 365 nM; relative to: no-protein control; reading: higher = stronger binding
Target: RNA binding protein fox-1 homolog 2, RRM domain, GST-SBP tag (RBFOX2, Homo sapiens, UniProt O43251-10, residues 100-194)
Notes: natural RNA segment, single round, ends assumed
All sequences stand within: GGGAGUUCUACAGUCCGACGAUC … UGGAAUUCUCGGGUGCCAA
Residues (chain): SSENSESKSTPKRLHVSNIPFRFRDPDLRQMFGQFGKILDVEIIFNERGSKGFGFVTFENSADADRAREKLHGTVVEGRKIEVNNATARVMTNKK
Sequence | RBNS enrichment (R)
AGCACUGCCACCUUGUGUCCAUAUAGCACAAUGUUUCUCUUUCCUAUUCACAGACAAGAUUCAAGAAACCAUUUUUACGUGUGUACAUUCAAAUCUUCAUGAAUGGCAUC | 0.461
UUCAUAUACAGGAUAGCCUAAUUUUAUUUGUUUAAAUAUGCUUAAUAUGCCCAAGAUUGCAAAUGCAUCCAGUCAGUAAUACCACUGUCUGUAUGUGGAAGACAUGUUCC | 0.434
AUUAAACAUGGCGUUAUUUAAGUAGUCCUGCUGCAAGAAAGGCACUUCAGUGAAUAUGUGACUAGUAAAGCUUAAAUAUGUUUGGAUCUAAUAGAGCUCAUGAAAUACUG | 0.739
AAAAUAAAUAUUUUUGGUAUUUAUUUAUGAAAUAUUUGAACAUUUUUUCAAUAAUUCCUUUUUACUUCUAGGAAGUCUCAAAAGACCAUCUUAAAUUAUUAUAUGUUUGG | 0.828
CUGUUAAGCAAGUGUGAUCUGCAACAUUUUUUCAACUUUUGCUAGCACUGUAUACUAUUGCAUUCUUAGGCUACUGUGAGGUCUAUGUUUCUUGUACCAGAAAUUGUCCU | 0.883
UCUGAGAGUCUUGUACUCACCUCUGAAAUUUAAAAACGUAUAAAGAGAGCCUGGGUUAAUCAGUUCUGCAGCCCCUACGUGACACUGUGCUAGUUCUCCUUCUUCUGUCU | 0.444
AUGUCAUGGUCUAAACACCAAAAAGUGAUGCCCCGCAUUCCUUCCCUGGAUGGUACCGUUUCUUCUCCGUCUCUCUUUGAUGAUUCUUUGGGACCAAAGUCCUCUCCUUA | 0.202
GACUCGCUUCCCAUCCUGGCAUAGAGUGGGGGAUGGCUGGAGGGUGUCUAUAGGUACAGCCCGCUCUGGCUGCUGCCAGGUGGGCCCCUGCCAGGGGUCCUCACCCCUGU | 0.334
CGCUGUGUUCUAGGCCCGCCCACCCCAACCUUCUGGUGGGGAGAAAUAAACGGUUUAGAGACUAGGAGUGCCUCGGGGUUCCUUGGCUUGCGGGAGGAAUUGGUGCAGAG | 0.841
UAACAUUAAGAUGAGCCCUAAUAUGUAAGAUUUUCCUCUGGAAUGGAUGUGAGAAAUGUAAAUUUUAUAACAGCAGUAUUUAUCCUGGUUUAAUUCUAAUACGAUGUCAU | 1
CUUAGCAAACCAGCAUAAGAGAAUCUACCCAUGGAAUGUUCUGGAAGGUGGGCAGUCCAGGUUACAGUUGAUGAAGGAAACAGUGCCUGUCUGCCUCUCAUGUGUGACCC | 1.03
UUUUAAUAAGCUAUUUCAAUUUGUUUGUUAUAUUAAGUUGACUUUAUCAAAUACACAAAGAUUUUUUUGCAUAUGUUUCCUUCGUUUAAAACCAGUUUCAUAAUUGGUUG | 0.518

Block 2 — technique: protein binding microarray; molecule type: double-stranded DNA, one strand shown; sample: in vitro; tested at: not given; relative to: not given; reading: higher = stronger binding
Target: Histone acetyltransferase KAT6A, both winged helices, GST fusion (KAT6A, Homo sapiens, UniProt Q92794, residues 1-181)
Notes: 8-mer, flanks averaged, mean of 2 arrays, mostly near background
Residues (chain): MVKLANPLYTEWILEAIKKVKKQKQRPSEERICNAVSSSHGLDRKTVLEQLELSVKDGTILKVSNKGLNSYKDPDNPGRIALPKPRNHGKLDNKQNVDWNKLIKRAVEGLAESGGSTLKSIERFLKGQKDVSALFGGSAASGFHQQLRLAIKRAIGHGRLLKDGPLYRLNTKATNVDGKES
Sequence | E-score
AACAATCA | -0.0866
ACTCCCGG | 0.145
CTAATAGC | -0.0822
GCATTACA | -0.0531
ACCAACGA | -0.152
AACTAAAG | -0.167
GGATTTTA | -0.128
ACCAATCG | -0.0885
CGCTACGA | 0.15
ATCCTCAG | -0.139
CCGTCAGA | 0.149
ATCTAGGG | -0.301
GTGTTCGA | 0.0863
GTGTGAGA | -0.154
AGATGCGC | 0.22
AGTGGGAA | -0.15
GACGAAGA | -0.0434
ATGTTCTG | -0.0671
AGGGACGA | 0.0299

Block 3 — technique: RNAcompete; molecule type: RNA; sample: in vitro; tested at: 20 nM; notes: 7-mer, probes averaged, single round; relative to: mean of 7-mers; reading: higher = stronger binding
Target: PABPC1L2, full length, GST fusion (mouse, UniProt A0ABA7IW68)
Target sequence (chain): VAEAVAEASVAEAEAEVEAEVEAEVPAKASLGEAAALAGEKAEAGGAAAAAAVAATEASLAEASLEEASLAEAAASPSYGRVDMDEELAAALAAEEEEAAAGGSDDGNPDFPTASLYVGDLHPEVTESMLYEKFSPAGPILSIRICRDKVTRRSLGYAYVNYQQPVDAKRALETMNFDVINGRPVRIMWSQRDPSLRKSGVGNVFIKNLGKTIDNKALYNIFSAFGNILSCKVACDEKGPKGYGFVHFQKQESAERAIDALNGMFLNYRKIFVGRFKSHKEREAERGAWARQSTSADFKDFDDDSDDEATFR
Sequence | 7-mer Z-score
UGUAUGA | -0.213
CUACAAC | -0.191
UCUUUAC | -0.186
CGGAGCA | 0.102
UACAUGU | -0.0844
CGCCGUU | -0.427
AGACACU | -0.171
GAUCGAU | -0.104
AUUAGGC | -0.0246
CUCCAGU | -0.237
CUGCAUA | -0.142
CAUCCAG | -0.26
AGUUAAG | -0.173
UUCCGUC | -0.492
GAUCGUU | -0.356
UUUAGGA | 0.0714
GUCUACU | -0.351
GAACUAC | -0.146
CUAUCCG | -0.385
GCCAGAC | -0.0246
UCGUGAU | -0.4
GAUGGCA | -0.0917
UCAGCAU | -0.209
CCGAGGU | -0.229
CCUUCGG | -0.443

Block 4 — technique: universal PBM; molecule type: double-stranded DNA, one strand shown; sample: in vitro; tested at: 600 nM; reading: higher = stronger binding
Target: Sal-like protein 4, full length isoform A (SALL4, Homo sapiens, UniProt Q9UJQ4, residues 1-1053)
UniProt Q9UJQ4, sequence (whole entry, looked up): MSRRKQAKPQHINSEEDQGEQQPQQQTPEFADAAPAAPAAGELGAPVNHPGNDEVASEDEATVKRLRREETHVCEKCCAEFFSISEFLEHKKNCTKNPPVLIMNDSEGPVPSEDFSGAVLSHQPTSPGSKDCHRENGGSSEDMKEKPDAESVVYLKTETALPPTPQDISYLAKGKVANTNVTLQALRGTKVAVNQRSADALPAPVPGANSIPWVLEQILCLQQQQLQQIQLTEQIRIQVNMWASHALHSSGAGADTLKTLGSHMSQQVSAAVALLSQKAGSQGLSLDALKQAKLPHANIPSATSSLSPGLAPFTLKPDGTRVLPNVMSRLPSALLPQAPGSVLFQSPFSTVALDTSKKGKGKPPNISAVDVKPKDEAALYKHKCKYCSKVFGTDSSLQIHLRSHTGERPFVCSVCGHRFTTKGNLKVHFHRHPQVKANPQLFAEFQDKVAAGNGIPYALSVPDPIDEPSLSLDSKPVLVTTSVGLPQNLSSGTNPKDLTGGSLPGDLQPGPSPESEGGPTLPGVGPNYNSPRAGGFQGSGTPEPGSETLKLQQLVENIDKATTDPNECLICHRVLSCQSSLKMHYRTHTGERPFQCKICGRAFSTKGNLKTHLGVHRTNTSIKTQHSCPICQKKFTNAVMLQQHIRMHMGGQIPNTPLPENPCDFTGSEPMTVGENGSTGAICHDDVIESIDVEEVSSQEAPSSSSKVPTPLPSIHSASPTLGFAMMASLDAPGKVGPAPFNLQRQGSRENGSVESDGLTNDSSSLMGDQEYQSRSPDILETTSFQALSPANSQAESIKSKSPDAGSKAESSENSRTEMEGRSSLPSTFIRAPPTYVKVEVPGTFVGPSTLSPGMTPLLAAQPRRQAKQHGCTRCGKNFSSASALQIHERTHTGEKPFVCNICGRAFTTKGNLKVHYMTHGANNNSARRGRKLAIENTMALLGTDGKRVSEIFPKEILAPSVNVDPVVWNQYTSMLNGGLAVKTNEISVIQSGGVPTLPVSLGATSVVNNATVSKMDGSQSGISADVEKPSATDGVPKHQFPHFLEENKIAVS
Notes: 8-mer, flanks averaged, mean of replicates
Sequence | E-score
AAGAACTT | 0.0964
AACGTTCT | 0.0372
ATCTCGTG | -0.146
ATATTCGG | 0.241
GCTGTTTA | 0.191
ATGCAAGC | 0.003
AGAAACCG | -0.259
AATTCAAT | 0.263
ACCACTGC | -0.211
AGAGATCG | -0.17
ACGATCTG | -0.238
AGAATTGA | 0.166
GCGAAGAA | 0.0366
CCGGACAA | -0.194
ACGGCAAA | -0.012
ATCAAAGG | 0.11
AGCCCAAG | -0.245
CCCACCGA | -0.223
GGTCGTAA | 0.112
AGCGCGCT | -0.222
GGCGTCGA | -0.223
AAGCTAAC | 0.0204
CAAACTCG | -0.23
GAGTGTAA | 0.13

Block 5 — technique: RNA Bind-n-Seq; molecule type: RNA; sample: in vitro; tested at: 1 µM; notes: whole 134-nt RNA, ends assumed; with: 150 mM KCl; relative to: input library; reading: higher = stronger binding
Target: Ras GTPase-activating protein-binding protein 1, C-terminal RGG region (G3BP1, Homo sapiens, UniProt Q13283)
UniProt Q13283, sequence (whole entry, looked up): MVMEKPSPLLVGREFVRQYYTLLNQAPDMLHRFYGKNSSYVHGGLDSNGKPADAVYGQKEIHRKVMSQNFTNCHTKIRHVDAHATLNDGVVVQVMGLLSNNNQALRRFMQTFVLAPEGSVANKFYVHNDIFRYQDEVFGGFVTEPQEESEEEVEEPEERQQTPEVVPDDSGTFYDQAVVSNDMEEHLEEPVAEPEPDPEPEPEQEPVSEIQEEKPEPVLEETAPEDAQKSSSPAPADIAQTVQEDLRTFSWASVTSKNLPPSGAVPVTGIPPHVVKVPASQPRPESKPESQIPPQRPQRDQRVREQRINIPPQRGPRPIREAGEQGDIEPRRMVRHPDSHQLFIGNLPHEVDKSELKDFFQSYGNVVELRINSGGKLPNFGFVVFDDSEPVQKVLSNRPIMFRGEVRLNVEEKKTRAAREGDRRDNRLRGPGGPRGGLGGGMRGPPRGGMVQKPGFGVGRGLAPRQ
All sequences stand within: GGGAGUUCUACAGUCCGACGAUC … UGGAAUUCUCGGGUGUCAAGG
Sequence | log2 enrichment
AGUCCUGUGCUACACAUCGUAUGUACCGAAUCGGGGAGGGGUUUUUGGGGAAAGGGGAAAGUAUUAUGUUACGCCGUUCGGAUCUGCACU | 1.6
AGUCCUGUGCUACACAUCGUAUGUACCGAAUCGGGAAAGGGUUUUUUUGGGAAAGGGAAAGUAUUAUGUUACGCCGUUCGGAUCUGCACU | -0.022
GCAGGAAGUAAAAACAAAUGGAACUGCUUCGGAUAGUGGCAGGGGUGGGGGUUGCUAAGGAAAGGGUGGGAUGGGAGUGGGUAAAGAGUU | 1.94
AGUCCUGUGCUACACAUCGUAUGUACCGAAUCGGGGAAAAAGGAAAAAGGAAAAAGGAAAGUAUUAUGUUACGCCGUUCGGAUCUGCACU | -1.96
CUCAAGUCCUGUGCUACACAUCGUAUGUACCGAAUCGGGAAGGGGAAGGGAAGGAAAGUAUUAUGUUACGCCGUUCGGAUCUGCACUUCC | -0.942
CUCAAGUCCUGUGCUACACAUCGUAUGUACCGAAUCGGGGUUGGGUUGGGUUGGAAAGUAUUAUGUUACGCCGUUCGGAUCUGCACUUCC | 0.0917
UGGGAGGUGGAUUUUGUUUAUUUUUUUAGCUCAUUUCCAGGGGUGGGAAUUUUUUUUUAAUAAGUGUCAUGAAUAAAGUUGUUUUUGAAA | 3.53
GGGUGGACACUGACGAGCUGGACAGCAACGUGGACGACUGGGAAGAGGAGACCAUUGAGUUCUUCGUCACUGAAGAAAUCAUUCCCCUCG | -1.24
CUCAAGUCCUGUGCUACACAUCGUAUGUACCGAAUCGGGUUGGGUUGGGGUUGGAAAGUAUUAUGUUACGCCGUUCGGAUCUGCACUUCC | 0.00258
CACAGACAACACGCACCCACACAGACACAGAGGGAAGGGGUUGGGAUGGGGACAGGGUGCACAGCAGGGCGGGGUAGGAGCCCAGCCCCU | -0.807
GCAGGAAGUAAAAACAAAUGGAAAUGCUUCGGAUAGUGGCAGGGGUGGGGGUUGCUAAGGAAAGGGUGGGAUGGAAAUGGGUAAAGAGUU | 1.49
UUUCCCCUGGAGGGCGCCUCCAUCCUUGGAGGCCUAGUGCCGUCGGAGAGAGAGCGGGAGCCGCGGACAGAGACGCGUGCGCAAUUCGGA | -2.95
CCUGUGCUACACAUCGUAUGUACCGAAUCGGGGUUUUUUUGGUUUUUUUGGUUUUUUUGGGAAAGUAUUAUGUUACGCCGUUCGGAUCUG | -1.7
GCAGGAAGUAAAAACAAAUGGAAAUGCUUCGGAUAGUGGCAGCGGUGGGGGUUGCUAAGGAAAGGGUGGGAUGGGAGUGGGUAAAGAGUU | 0.982

Block 6 — technique: RNA Bind-n-Seq; molecule type: RNA; sample: in vitro; tested at: 20 nM; notes: 6-mer, flanks averaged, single round; with: 150 mM LiCl; relative to: input library; reading: higher = stronger binding
Target: TAR DNA-binding protein 43, full length, His tag (TARDBP, Homo sapiens, UniProt Q13148, residues 1-414)
Sequence | 6-mer enrichment (R)
CGACUG | 0.913
GCUUGG | 1.1
UACUGC | 0.87
CCGCUA | 0.902
UCCGAA | 0.806
AGAGGC | 0.983
GCAAUC | 0.843
GGUAGA | 1.12
GUUGUG | 1.7
UUUAGU | 1.16
GUCAGC | 0.891
GACUAC | 0.831
CCAUAU | 0.951
CAACGA | 0.776
ACAGUA | 0.864
AGUCUA | 0.818
GGAUCC | 0.911
UCGAGC | 0.842
UGCAAG | 0.974

Other studies, line by line
Substance | target | test | test system | setting | scale | endpoint | value
PhoQ, residues 284 288 289 292 302 303 SCEHLI | PhoP, residues 12 14 15 18 19 LYHSL (Escherichia coli, UniProt P23836) | Sort-seq, measured: YFP reporter | E. coli | PhoQ-PhoP variant library, with: 10 µM Mg2+ | relative to: high Mg2+ state, higher = stronger signaling | fold induction | 8.82
